Assay results from different studies.
Compare with care: the assays were run in different laboratories. “And” joins repeats or separate records; there may be more than shown. ± gives the spread as reported.

CN(C(=O)n1cnc(-c2ccc[n+]([O-])c2)c1)C1CCCCC1: “recovery of activity” ~50% (FAAH (cynomolgus monkey); cynomolgus monkey, leukocytes; dose not given, 168 h).
Oc1ccccc1-c1n[nH]cc1-c1ccnc2ccccc12: “log2 fold change” -0.31 (RIM15 (Candida albicans); kinase binding, MIB/MS competition; Candida albicans lysate; 10 µM; reference: DMSO).
For COc1cc(C(=O)NS(=O)(=O)c2ccccc2C)ccc1Cc1cn(C)c2ccc(NC(=O)OC3CCCC3)cc12, the inhibition was -26.4% and 4.17% and 42.9% and 11.9% and -17% (native VRAC; ion current, inhibitor, whole-cell patch clamp; wild-type HCT cells; 3 µM, pH 7.4, extracellular pH).
Under “log2 fold change”, N#Cc1ccc2c(-c3ccncc3)c(-c3ccc(F)cc3)nn2c1 is recorded as 0.224 (orf19.6492 kinase Candida albicans; MIB/MS competition binding; Candida albicans cell lysate; 10 µM; reference: DMSO, lower = stronger binding).
NCCCOc1cc(NC(=O)c2cc(Cl)cc(C(=O)Nc3cc(OCCCN)c4ccccc4n3)n2)nc2ccccc12 gave a ΔTm of 18.9 ± 0.7 K (Bcl2 G-quadruplex DNA; FRET melting; 1 µM, pH 7.4, added: 60 mM potassium).
For N#Cc1ccn2c(-c3ccncc3)c(-c3ccc(F)cc3)nc2c1, “log2 fold change” read 0.133 (orf19.6492 kinase Candida albicans; MIB/MS competition binding; Candida albicans cell lysate; 100 nM; reference: DMSO, lower = stronger binding).
The ΔTm of NCCOc1cc(NC(=O)c2cccc(C(=O)Nc3cc(OCCN)c4ccccc4n3)n2)nc2ccccc12 is reported as 14.7 ± 0.8 K (Bcl2 G-quadruplex DNA; FRET melting; 1 µM, pH 7.4, added: 60 mM potassium).
CN(C)CCCNc1cc2c(=O)n(CCCN(C)C)c(=O)c3c4[nH]c5ccccc5[nH]c4c4c(=O)n(CCCN(C)C)c(=O)c1c4c23 has a ΔTm of 1.2 ± 1.1 °C (HIV-1 LTR-III G-quadruplex; FRET melting; 0.25 µM, K+ 100 mM).
O=C(Nc1cc(OCCN2CCCC2)c2ccccc2n1)c1cc(OCc2ccc(F)cc2)cc(C(=O)Nc2cc(OCCN3CCCC3)c3ccccc3n2)n1 gave a ΔTm of 6.7 ± 0.5 K (Bcl2 G-quadruplex DNA; FRET melting; 1 µM, pH 7.4, added: 60 mM potassium).
CC(=O)NCCCC[C@H](NC(=O)CNC(=O)[C@H](CCCNC(=N)N)NC(C)=O)C(=O)Nc1ccc2c(C)cc(=O)oc2c1 has a kcat of 0.002 ± 0.001 s⁻¹ (human K353L/Y782F mutant enzyme; substrate, fluorogenic).
The ΔTm of CN(C)CCCn1c(=O)c2ccc3c(=O)n(CCCN(C)C)c(=O)c4c5[nH]c6cc([N+](=O)[O-])ccc6[nH]c5c(c1=O)c2c34 is reported as 7 ± 0.7 °C (HIV-1 LTR-III G-quadruplex; FRET melting; 0.25 µM, K+ 100 mM).
The ΔTm of C#CCOc1cc(C(=O)Nc2cc(OCCN)c3ccccc3n2)nc(C(=O)Nc2cc(OCCN)c3ccccc3n2)c1 is reported as 14.6 ± 0.5 K (Bcl2 G-quadruplex DNA; FRET melting; 1 µM, pH 7.4, added: 60 mM potassium).
Cc1n[nH]c2ccc(-c3cc(OC[C@@H](N)Cc4ccccc4)cnc3-c3ccoc3)cc12: “log2 fold change” -0.282 (orf19.6492 kinase Candida albicans; MIB/MS competition binding; Candida albicans cell lysate; 100 nM; reference: DMSO, lower = stronger binding).
CCCCC(CC)C(C)c1ccc(O)cc1 (stereo not drawn): “average chemical shift perturbation” 0.024 ppm (HBV core protein Cp149 dimer; solution NMR; 4 molar equivalents, pH 7.5, 295 K, average over eight residues; reference: apo Cp149 dimer).
With C#CCOc1cc(C(=O)Nc2cc(OCCCN)c3ccccc3n2)nc(C(=O)Nc2cc(OCCCN)c3ccccc3n2)c1 the ΔTm was 7.5 ± 0.4 K (Bcl2 G-quadruplex DNA; FRET melting; 1 µM, pH 7.4, added: 60 mM potassium).
Under “log2 fold change”, c1ccc(-c2n[nH]cc2-c2ccnc3ccccc23)nc1 is recorded as 1.4 (orf19.6492 kinase Candida albicans; MIB/MS competition binding; Candida albicans cell lysate; 100 nM; reference: DMSO, lower = stronger binding).
For C[N+](C)(C)CCCn1c(=O)c2cc(Br)c3c(=O)n(CCC[N+](C)(C)C)c(=O)c4c5[nH]c6ccccc6[nH]c5c(c1=O)c2c34.[I-].[I-], the ΔTm was 5.5 ± 0.1 °C (HIV-1 LTR-III G-quadruplex; FRET melting; 0.25 µM, K+ 100 mM).
For c1coc(-c2n[nH]cc2-c2ccnc3ccccc23)c1, “log2 fold change” read -0.04 (TPK2 (Candida albicans); kinase binding, MIB/MS competition; Candida albicans lysate; 10 µM; reference: DMSO).
With O=C(Nc1cc(OCCN2CCCC2)c2ccccc2n1)c1cc(Cl)cc(C(=O)Nc2cc(OCCN3CCCC3)c3ccccc3n2)n1 the ΔTm was 8.6 ± 0.9 K (Bcl2 G-quadruplex DNA; FRET melting; 1 µM, pH 7.4, added: 60 mM potassium).
For N[C@H]1CONC1=O, the trans-stimulation ratio was 1.34 (human H+/organic cation antiporter; hCMEC/D3; 250 µM, 2 min, added: 1 µM DPH preloading 30 min; reference: control).
With CN(C)CCCn1c(=O)c2ccc3c(=O)n(CCCN(C)C)c(=O)c4c5[nH]c6cc(C(=O)O)ccc6[nH]c5c(c1=O)c2c34 the ΔTm was 5 ± 0.7 °C (HIV-1 LTR-III G-quadruplex; FRET melting; 0.25 µM, K+ 100 mM).
CCCCCCCCCCCCCCCC(=O)Oc1ccc([N+](=O)[O-])cc1 has a Km of 0.27 ± 0.02 µM (Candida rugosa lipase; substrate, p-nitrophenol release; free enzyme, optimal conditions).
C[C@@H](N)COc1ccc(-c2cnc3ccc(N[C@H](C)c4cccc(F)c4)nn23)cc1 gave an IC50 of 4.7 nM (TRKA, TRKB, TRKC, geometric mean; inhibitor).
Under “efficacy factor E2”, CCCCCCCC(=O)OC[C@H](COP(=O)(O)O[C@@H]1[C@H](O)[C@H](O)[C@@H](OP(=O)(O)O)[C@H](OP(=O)(O)O)[C@H]1O)OC(=O)CCCCCCC is recorded as 0 (Kv7.2/Kv7.3(EEE) mutant channel; channel open probability, activator, fitted PIP2 binding model; model 4, K3 constrained; reference: channel without bound PIP2).
For CSc1cc(Oc2ccnc3[nH]c(=O)cnc23)ccc1NC(=O)Nc1cc(C(C)(C)C)nn1-c1ccccc1, “phospho-Thr359/Ser363 RSK1-3 to total ratio” read 0.62 (p90 ribosomal S6 kinases 1-3; reverse phase protein array; patient-derived A cell clone line, human; 1 µM, 4 h; reference: DMSO).
For Cc1c(N)c(=O)n(-c2ccccc2)n1C, the trans-stimulation ratio was 1.09 (human H+/organic cation antiporter; hCMEC/D3; 250 µM, 2 min, added: 1 µM DPH preloading 30 min; reference: control).
COc1cc(-c2cn(C)c(=O)c3cnccc23)cc(OC)c1CN1CCN(CCCCCOc2cc(-c3scnc3C)ccc2CNC(=O)[C@@H]2C[C@@H](O)CN2C(=O)[C@@H](NC(=O)C2(F)CC2)C(C)(C)C)CC1 gave a cooperativity alpha of 0.85 (VHL-elongin C-elongin B and BRD9; SPR; immobilized VHL-elongin C-elongin B; reference: binary KD over ternary KD).
O=C(O)COCCN1CCN([C@H](c2ccccc2)c2ccc(Cl)cc2)CC1 gave a trans-stimulation ratio of 0.91 (human H+/organic cation antiporter; hCMEC/D3; 250 µM, 2 min, added: 1 µM DPH preloading 30 min; reference: control).
With CN(C)CCCOc1cc(NC(=O)c2cc(Cl)cc(C(=O)Nc3cc(OCCCN(C)C)c4ccccc4n3)n2)nc2ccccc12 the ΔTm was 22.7 ± 0.8 K (Bcl2 G-quadruplex DNA; FRET melting; 1 µM, pH 7.4, added: 60 mM potassium).
For CNC(=O)c1ccc(Nc2ncc(C(F)(F)F)c(NCc3nccnc3N(C)S(C)(=O)=O)n2)cc1, inhibition read “no inhibition” (phosphodiesterase panel; inhibitor; up to 10 µM, weak PDE2A inhibition).
The trans-stimulation ratio of CCCCN1CCCC[C@@H]1C(=O)Nc1c(C)cccc1C is reported as 0.59 (human H+/organic cation antiporter; hCMEC/D3; 250 µM, 2 min, added: 1 µM DPH preloading 30 min; reference: control).
With NCCOc1cc(NC(=O)c2cc(OCc3c[nH]nn3)cc(C(=O)Nc3cc(OCCN)c4ccccc4n3)n2)nc2ccccc12 the ΔTm was 14.4 ± 0.9 K (Bcl2 G-quadruplex DNA; FRET melting; 1 µM, pH 7.4, added: 60 mM potassium).
NC(=O)C1=CN([C@@H]2O[C@H](COP(=O)(O)OP(=O)(O)OC[C@H]3O[C@@H](n4cnc5c(N)ncnc54)[C@H](O)[C@@H]3O)[C@@H](O)[C@H]2O)C=CC1 gave a kcat of 10.9 ± 0.57 s⁻¹ (FSP1 L323A mutant; substrate; added: 100 µM co-substrate).

Excerpt of the above:
COc1cc(-c2cn(C)c(=O)c3cnccc23)cc(OC)c1CN1CCN(CCCCCOc2cc(-c3scnc3C)ccc2CNC(=O)[C@@H]2C[C@@H](O)CN2C(=O)[C@@H](NC(=O)C2(F)CC2)C(C)(C)C)CC1 gave a cooperativity alpha of 0.85 (VHL-elongin C-elongin B and BRD9; SPR; immobilized VHL-elongin C-elongin B; reference: binary KD over ternary KD).
O=C(O)COCCN1CCN([C@H](c2ccccc2)c2ccc(Cl)cc2)CC1 gave a trans-stimulation ratio of 0.91 (human H+/organic cation antiporter; hCMEC/D3; 250 µM, 2 min, added: 1 µM DPH preloading 30 min; reference: control).
With CN(C)CCCOc1cc(NC(=O)c2cc(Cl)cc(C(=O)Nc3cc(OCCCN(C)C)c4ccccc4n3)n2)nc2ccccc12 the ΔTm was 22.7 ± 0.8 K (Bcl2 G-quadruplex DNA; FRET melting; 1 µM, pH 7.4, added: 60 mM potassium).
